Published values gathered from unrelated publications.
A part holds a random share of what one study measured. Changes are numbered by the printed parent chain.
Sequence of UniProt O15294 (whole entry, looked up): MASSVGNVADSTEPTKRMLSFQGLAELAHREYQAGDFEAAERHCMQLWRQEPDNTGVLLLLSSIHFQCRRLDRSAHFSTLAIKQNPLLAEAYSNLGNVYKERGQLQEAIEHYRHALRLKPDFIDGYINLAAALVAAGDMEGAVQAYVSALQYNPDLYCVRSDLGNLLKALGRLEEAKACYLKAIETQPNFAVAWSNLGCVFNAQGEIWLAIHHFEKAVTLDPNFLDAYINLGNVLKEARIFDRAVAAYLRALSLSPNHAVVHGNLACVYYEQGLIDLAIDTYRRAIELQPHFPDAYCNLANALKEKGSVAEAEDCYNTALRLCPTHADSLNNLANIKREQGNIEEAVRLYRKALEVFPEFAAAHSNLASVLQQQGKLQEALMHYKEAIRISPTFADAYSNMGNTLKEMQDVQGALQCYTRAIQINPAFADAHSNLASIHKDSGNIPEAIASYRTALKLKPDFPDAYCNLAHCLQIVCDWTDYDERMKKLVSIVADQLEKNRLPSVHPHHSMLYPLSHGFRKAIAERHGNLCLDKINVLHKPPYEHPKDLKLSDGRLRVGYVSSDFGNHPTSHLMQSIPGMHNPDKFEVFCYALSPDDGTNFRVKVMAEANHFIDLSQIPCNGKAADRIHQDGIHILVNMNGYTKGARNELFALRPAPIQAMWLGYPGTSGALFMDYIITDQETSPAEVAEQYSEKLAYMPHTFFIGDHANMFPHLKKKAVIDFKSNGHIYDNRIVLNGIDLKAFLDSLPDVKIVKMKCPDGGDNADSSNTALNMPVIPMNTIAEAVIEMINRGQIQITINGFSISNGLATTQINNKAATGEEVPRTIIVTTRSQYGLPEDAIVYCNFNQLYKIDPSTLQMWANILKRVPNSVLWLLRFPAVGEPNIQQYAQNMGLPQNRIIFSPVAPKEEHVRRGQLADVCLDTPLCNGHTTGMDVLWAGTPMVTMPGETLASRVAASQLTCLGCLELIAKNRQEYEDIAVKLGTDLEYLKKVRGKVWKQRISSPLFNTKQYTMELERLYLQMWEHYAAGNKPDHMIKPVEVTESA

Study 1
Target: TEF, bZIP domain (human)
Technique: DHFR protein complementation
Medium: yeast
Setting: single substitutions, most at no-binding floor
Baseline: wild-type JUN-FOS pair
Reading: higher = stronger binding
Quantity: binding fitness
Starting sequence: JUN, bZIP domain (human); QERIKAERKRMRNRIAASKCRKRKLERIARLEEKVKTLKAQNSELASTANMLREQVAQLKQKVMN; partner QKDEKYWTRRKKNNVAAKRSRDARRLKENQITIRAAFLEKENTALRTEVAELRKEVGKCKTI
E33I: -1.5 natural log
A40Y: -1.45 natural log
A40P: -1.41 natural log
T37L: -1.43 natural log
S43Q: -1.19 natural log
A57R: -1.52 natural log
R53G: -1.49 natural log
L52A: -1.52 natural log

Study 2
Target: RING finger protein unkempt homolog, zinc fingers 1-6, GST-SBP tag (UNK, Homo sapiens, UniProt Q9C0B0, residues 30-357)
Sequence of UniProt Q9C0B0 (30-357, looked up): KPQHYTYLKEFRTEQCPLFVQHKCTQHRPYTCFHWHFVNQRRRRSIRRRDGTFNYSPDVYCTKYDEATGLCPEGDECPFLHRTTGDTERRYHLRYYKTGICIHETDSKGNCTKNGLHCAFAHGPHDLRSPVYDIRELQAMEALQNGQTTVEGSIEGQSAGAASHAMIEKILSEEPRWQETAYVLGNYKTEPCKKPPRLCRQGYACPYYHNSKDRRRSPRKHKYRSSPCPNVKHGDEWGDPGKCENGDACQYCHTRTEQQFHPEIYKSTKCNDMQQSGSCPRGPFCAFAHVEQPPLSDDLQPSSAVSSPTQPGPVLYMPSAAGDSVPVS
Technique: RNA Bind-n-Seq
Form: RNA
Medium: in vitro
Concentration: not given
Setting: RNA with constant flanks, human and mouse sites, ends assumed
Baseline: input RNA pool
Reading: higher = stronger binding
Quantity: bound/input enrichment
Constant ends, left off below: GGGAGUUCUACAGUCCGACGAUC … CAACAGAGGAUUGAGCAUCA
CACAGGGCAAUGGGGAGCUUGCAGCAAGCCCUUGUGUGCUUUGAAAAGAGGCUCGUGGUUGCUCAUGAACUUGGAGAGGCCUUCAAUAAAGCCCAGGCCUAUGGAGAGCUGGGAAGUCUG: 0.139 ratio
UUUGAGUCACAUAAGGAUGAAAUAUUCCAGGUUCAGUGGUCACCUCACAAUGAGACUAUUUUAGCUUCCAGUGGUACUGAUCGCAGACUGAAUGUCUGGGAUUUAAGUAAAAUUGGAGAG: 0.152 ratio
UGUAAUCAGUGUGGAAGAGCCUUCAGCCAGAAGCAAUACCUCAUUAAACAUCAGAACAUCCAUACUGGAAAGAAGCCCUUUAAAUGUAGUGAGUGUGGAAAAGCUUUUAGCCAGAAGGAA: 1.51 ratio
AGCCGCCCCUUUGCCAAGGUCACUGUCUGCUUCCCUCCAGACCCUGCAGGCCCAGCACCUGCAUGGAAGCCAGCUGGGCUCCCUCCUCCUGCCUUCCGCCGCUCUGAGCCUUUCCUAGCA: 0.297 ratio
UUAACGCUUUCUAAGUGAAUGCAGCAUGUGAUGGUAUUUUAAAGUGUGUUCCCAUGUGACAAUUUUAUAAAAGUUUGUUACCUUGCAAUUUUAUUUCAAAACAUAAAUUCAGAUUUAAAA: 0.187 ratio
UCUCAAAGUAGAGCCGAAUAUGAUUCAGAGGAGAGUCUGGGAAGUGAUGAUGAUGACAAUGAUGAUGAUGAUGAUGUUUUAGCAUCAGAUUUCCAUCUCCAGGAACAUUCUAAUUCAAAU: 0.329 ratio
GAUACAAAAAGGCUUUCCAAAGAGGAAAAGGGUCGCAGCAGUUGUGGUAGAAAUUUCUGGGUUAGUGGACUCUCUUCUACAACCAGAGCUACAGAUUUGAAGAAUCUUUUCAGCAAAUAU: 0.267 ratio
GGCACCCAAGUGGAUGAGGGGGUUCGCUCAGCCAGCAAGCGCAUCGUGGCGCCCCCAGGCGGCCGUUCUAAUAUCACAUCUCUGAGUUAAGCAAGCCUUCCUCAAAGAGAGGGGCAGAAG: 0.178 ratio

Further values, each from its own experiment
PhoQ, residues 284 288 289 292 302 303 SVTLVV  fold induction (PhoP, residues 12 14 15 18 19 NHTVL (Escherichia coli, UniProt P23836); Sort-seq, measured: YFP reporter; E. coli; PhoQ-PhoP variant library, with: 10 µM Mg2+; baseline: high Mg2+ state, higher = stronger signaling): 1.37
VVESMFMPEYQIVPV  enrichment fold change (OGT (Homo sapiens, UniProt O15294); binding, phage display NGS; peptide; concentration not given, panning round 2; baseline: input library): 8.29

Excerpt of the above (study 2):
GAUACAAAAAGGCUUUCCAAAGAGGAAAAGGGUCGCAGCAGUUGUGGUAGAAAUUUCUGGGUUAGUGGACUCUCUUCUACAACCAGAGCUACAGAUUUGAAGAAUCUUUUCAGCAAAUAU: 0.267 ratio
CACAGGGCAAUGGGGAGCUUGCAGCAAGCCCUUGUGUGCUUUGAAAAGAGGCUCGUGGUUGCUCAUGAACUUGGAGAGGCCUUCAAUAAAGCCCAGGCCUAUGGAGAGCUGGGAAGUCUG: 0.139 ratio
GGCACCCAAGUGGAUGAGGGGGUUCGCUCAGCCAGCAAGCGCAUCGUGGCGCCCCCAGGCGGCCGUUCUAAUAUCACAUCUCUGAGUUAAGCAAGCCUUCCUCAAAGAGAGGGGCAGAAG: 0.178 ratio
